Results of several laboratories.
Each numbered part is a random draw from the data of one study; scales do not carry over between parts. Substitutions count along the parent as printed.

Series 1
Target: RNA binding protein fox-1 homolog 2, RRM domain, GST-SBP tag (RBFOX2, Homo sapiens, UniProt O43251-10, residues 100-194)
Technique: RNA Bind-n-Seq
Molecule type: RNA
Matrix: in vitro
Concentration: 365 nM
Setting: natural RNA segment, single round, ends assumed
Baseline: no-protein control
Reading: higher = stronger binding
Construct (chain): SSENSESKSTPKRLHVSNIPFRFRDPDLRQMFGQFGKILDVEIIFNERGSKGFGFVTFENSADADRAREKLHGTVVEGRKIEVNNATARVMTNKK
For `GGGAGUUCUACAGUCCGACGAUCUUUUUUCUUCGUCCUUUUGGUUUAAAAAGUUUCACGUCUUGGUGCCUUUUGUGUGAUGCGCCUUGCUGAUGGCUUGACAUGUGCAAUUGUGAGGGACAUGCUCACCUCUAUGGAAUUCUCGGGUGCCAA`, “RBNS enrichment (R)” read 1.31.
`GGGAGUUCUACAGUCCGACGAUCAUUUGUAAAAUUAACACUAAAGAUGCAUGUGAGUCAUUUCACCAAAAGGAACUCUAUUAAUAAGCUAGACUGCUUUUGGUUUCCAGUAAUUGGUUUAAAAACACAGUAAAUGGAAUUCUCGGGUGCCAA`: “RBNS enrichment (R)” 0.542.
`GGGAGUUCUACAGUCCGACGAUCGAGGCACGUGAUCAGUGUUGCAACAUAAUGAAAAAGAUGGCUACUGUGCCUUGUGUUACUUAAUCAUACAGUAAGCUGACCUGGAAAUGAAUGAAACUAUUACUCCUAAGUGGAAUUCUCGGGUGCCAA` — result for “RBNS enrichment (R)”: 1.76.
`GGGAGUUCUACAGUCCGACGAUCAAAACAAAACAGAAAUCAAAAGUACACUCAAGUUCUUGUCCUGUAUCAAAUAUCCCUAGGUCAUCUGCCACCCACUUUCCAAGACCUUUCUCCUACUCAACCAGGAAGUCUGGAAUUCUCGGGUGCCAA` — result for “RBNS enrichment (R)”: 0.368.
For `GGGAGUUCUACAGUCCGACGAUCAAUGACUUGUAUUGAUUGGUUUAUAACUUCACACAGGGGUGACAUAAAUGUAUAUCUUGAAAAAGAUAUAGGUCACAGGUGGCUUAACUCUCCCUAGUUCUCAGUAGAAUUGGAAUUCUCGGGUGCCAA`, “RBNS enrichment (R)” read 0.318.
`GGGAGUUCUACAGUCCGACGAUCACCGUACACUUCCCACACGAGCUGCGGCUGCCAGCCUCGGGCCAUCAGCCUAGGAGAGCAGAUGCAGCUCCAGGGGCUCGACUUAUAGCCAGUUACAGCUCCCCGGCUCUUGGAAUUCUCGGGUGCCAA` — result for “RBNS enrichment (R)”: 0.155.
`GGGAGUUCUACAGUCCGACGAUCAUCAUGUCCAACCUGCUGGAGCCCCUUCACAUGGUGGAUGAUGCCCCAUGACCCUGUAGAAAUUGAAUCCUGCUCACAACAUUGUUGGCCUUCUUACUAACCUUGGACCGUGGAAUUCUCGGGUGCCAA`: “RBNS enrichment (R)” 0.776.
For `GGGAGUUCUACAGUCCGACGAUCUGAGAAUGCAUAUAUAUAUUUUUUAACAUUUCCUAUAUAUCUAAGGUACCAAAGCACUGAGUCUAAUUUACCUAUUAAGGGAGACUCUUUAAAAUCAACUUUAUAACUAAUGGAAUUCUCGGGUGCCAA`, “RBNS enrichment (R)” read 0.817.
For `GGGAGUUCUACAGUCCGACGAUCCAGUGUCUCUUGAGCAUCCCUUCGCGCCCCCCACCCUCCACUGCCGUCCCUCCCCAGAUGGGGCGUUGAGUCCAUAUUUAAACUGGCCACCCUCACAGUUCUAACUUAGCUGGAAUUCUCGGGUGCCAA`, “RBNS enrichment (R)” read 0.769.
For `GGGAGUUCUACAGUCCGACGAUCUCAGCCCUCGCAACUCGCCCCUCCGGGCCCCCCCACCAGGCACAACCAUCCCCGGGGCCAGCCGGGACGUUGUCGGUUUAUUUCUGUAAAUAGAAACCAGCAAGUGUAUAUGGAAUUCUCGGGUGCCAA`, “RBNS enrichment (R)” read 0.534.
Under “RBNS enrichment (R)”, `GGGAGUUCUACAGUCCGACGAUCGAAUCAUUAGGUAUAAAAAAUAAUCAUCAACCAGGCAAAUUACUUUGCUUCCUAGCUGAUGUCAUCCCACAUUGGUACAGGUGUUAUUCAGUACUGGGUGGUUCAGCAGGUGGAAUUCUCGGGUGCCAA` is recorded as 0.243.
`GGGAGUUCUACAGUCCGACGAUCCUUUAUUUUUAAGGAGCAGACUUUAAAAUGAGCCCUGACCUUUACCCAUUAUAACAGAAUUUGUCAAAAGGAGUGUUUCUUGAGGAGGUAGCUUUUUUUUACCACACUACUGGAAUUCUCGGGUGCCAA` — result for “RBNS enrichment (R)”: 0.4.

Series 2
Target: Interferon regulatory factor 7, full length, phosphomimetic (IRF7, Homo sapiens, UniProt Q92985, residues 1-503, S101K/S471D/S472D/S475D/S476D/S477D/S483D/S484D/S487D)
Technique: protein-binding microarray
Molecule type: double-stranded DNA, one strand shown
Matrix: in vitro
Concentration: 250 nM
Setting: 60-bp whole probe
Added: salmon DNA 0.4 mg/ml
Baseline: random background probes
Reading: higher = stronger binding
All sequences stand within: GCCTAGCAC … GTCTTGATTCGCTTGACGCTGCTG
Construct (chain): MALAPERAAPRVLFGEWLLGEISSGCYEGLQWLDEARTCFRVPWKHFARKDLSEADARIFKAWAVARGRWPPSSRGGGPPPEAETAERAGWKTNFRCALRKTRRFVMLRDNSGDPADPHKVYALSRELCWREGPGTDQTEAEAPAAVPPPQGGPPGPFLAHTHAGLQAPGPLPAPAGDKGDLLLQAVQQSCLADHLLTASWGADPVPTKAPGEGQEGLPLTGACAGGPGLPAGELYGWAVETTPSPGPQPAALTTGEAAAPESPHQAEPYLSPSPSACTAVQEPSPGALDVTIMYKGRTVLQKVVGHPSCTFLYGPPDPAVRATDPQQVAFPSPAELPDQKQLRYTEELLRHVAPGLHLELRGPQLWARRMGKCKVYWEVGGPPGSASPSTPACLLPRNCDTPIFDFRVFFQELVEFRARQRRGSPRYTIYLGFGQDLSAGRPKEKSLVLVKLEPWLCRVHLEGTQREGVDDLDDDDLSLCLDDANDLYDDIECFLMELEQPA
`TTAGATTTCGGGTTTCGATTTGTGCTA` has a log fluorescence of 12.1 z-score.
`TTAAATATCGGGTATCGATTAGTGCTA` gave a log fluorescence of 0.865 z-score.
For `GACGGTATCCCTCTCCTGACGTGCTAG`, the log fluorescence was -0.246 z-score.
The log fluorescence of `GACGGACTGGGTTTCGGGAGGTGCTAG` is reported as 0.633 z-score.
`TTTGGTATCGACACTGGGTTAGTGCTA` has a log fluorescence of 0.0776 z-score.
`TCATATTTGCTTCAGGTACTGTGCTAG` gave a log fluorescence of 0.801 z-score.
The log fluorescence of `TTAGAACTGAGACTGGATGAGTGCTAG` is reported as -0.447 z-score.
`TTAGGTTTCGGGATCGGTTAGTGCTAG` has a log fluorescence of 7.8 z-score.
With `GATGATATCGGGTTTCGAGACGTGCTA` the log fluorescence was 2.4 z-score.
`TCATTTTACTTTCTATGACTGTGCTAG` has a log fluorescence of 1.98 z-score.
`TTAGGTATCGACGTTCGGTTAGTGCTA` gave a log fluorescence of 0.467 z-score.
With `TACGATTTCAGACTGGAGACGTGCTAG` the log fluorescence was 0.265 z-score.
With `TTGGGTTTCCTTTTCCTTTAGTGCTAG` the log fluorescence was 5.55 z-score.
With `TTAGGTATCGGTTTTCGGTTAGTGCTA` the log fluorescence was 5.92 z-score.
`GACGGTCTCATTATCCTGACGTGCTAG` has a log fluorescence of 0.645 z-score.
`GACGGTCTCCTTATCCTGAAGTGCTAG` has a log fluorescence of 0.188 z-score.
For `TTTGATTTCGGGTATCGATTAGTGCTA`, the log fluorescence was 1.94 z-score.
`TTATATTTTAATCACATATAGTGCTAG` gave a log fluorescence of 0.869 z-score.
`TTAGGTTTCGACACTGAGTTAGTGCTA` has a log fluorescence of 3.67 z-score.
`TTAGGTATTCTTATCCTTTAGTGCTAG` gave a log fluorescence of 0.308 z-score.
The log fluorescence of `GTATGACTCTGCCTCTAACTGTGCTAG` is reported as 0.0337 z-score.

Series 3
Target: CCND2, cyclin fold, Cln2 fusion (human)
Technique: yeast growth competition, sequencing
Matrix: yeast
Setting: weak parent motif
Baseline: not given
Reading: higher = stronger binding
Parent: DNAH7 docking peptide (human); HELFQRLDFDNDG
Under “normalised enrichment score”, `HELFQRLDFANDG [D10A]` is recorded as -0.111.
For `HELFQRADFDNDG [L7A]`, “normalised enrichment score” read -0.276.
`HELFARLDFDNDG [Q5A]` — result for “normalised enrichment score”: 0.026.
Under “normalised enrichment score”, `HELAQRLDFDNDG [F4A]` is recorded as -0.115.
For `HELFQRLDFDNDA [G13A]`, “normalised enrichment score” read -0.0602.
`HEAFQRLDFDNDG [L3A]`: “normalised enrichment score” 0.0284.
`HELFQRLAFDNDG [D8A]` — result for “normalised enrichment score”: -0.0469.

Series 4
Target: ABI1, truncated, D143A, DHFR fusion (Arabidopsis thaliana)
Technique: DHFR PCA, deep sequencing
Matrix: yeast
Setting: methotrexate growth selection, single substitutions
Added: (+)-ABA 4.8 µM
Baseline: wild-type fitted maximum
Reading: higher = stronger binding
Parent: PYL1, truncated, DHFR fusion (Arabidopsis thaliana); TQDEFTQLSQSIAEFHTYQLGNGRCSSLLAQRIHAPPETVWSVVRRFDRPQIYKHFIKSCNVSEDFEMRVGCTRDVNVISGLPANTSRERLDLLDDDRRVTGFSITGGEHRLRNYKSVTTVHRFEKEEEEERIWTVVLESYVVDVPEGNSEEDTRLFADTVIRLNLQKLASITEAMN; partner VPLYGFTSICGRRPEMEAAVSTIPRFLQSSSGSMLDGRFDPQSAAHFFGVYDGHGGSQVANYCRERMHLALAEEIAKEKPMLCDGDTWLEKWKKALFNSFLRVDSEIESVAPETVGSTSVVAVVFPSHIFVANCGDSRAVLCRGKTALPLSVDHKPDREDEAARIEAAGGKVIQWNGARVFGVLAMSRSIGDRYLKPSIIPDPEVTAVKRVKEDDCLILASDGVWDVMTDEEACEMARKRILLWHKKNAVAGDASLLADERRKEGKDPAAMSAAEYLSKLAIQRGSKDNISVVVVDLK
`Q7Y`: “relative binding score” 77.7%.
For `R155D`, “relative binding score” read -16.4%.
`L82C`: “relative binding score” 19.9%.
Under “relative binding score”, `E152P` is recorded as 19.3%.
For `I105N`, “relative binding score” read -1.32%.
For `E14G`, “relative binding score” read 9.56%.
For `F103M`, “relative binding score” read 7.62%.
`C72R` — result for “relative binding score”: 22%.
Under “relative binding score”, `S171A` is recorded as 83.5%.
`I172K` — result for “relative binding score”: 13.8%.
`P146I`: “relative binding score” 6.11%.
Under “relative binding score”, `V43G` is recorded as 4.02%.
`S42W`: “relative binding score” 15.1%.
`S11M` — result for “relative binding score”: 63.8%.
`H122Y` — result for “relative binding score”: 13.5%.
`E152K`: “relative binding score” 48.5%.
`R113V` — result for “relative binding score”: 65.5%.
`W41G`: “relative binding score” -4.98%.
`V121P` — result for “relative binding score”: -14.1%.
`C60L`: “relative binding score” 1.74%.
For `D97N`, “relative binding score” read 77.1%.
`A35K`: “relative binding score” -27.1%.
`T173V`: “relative binding score” 69.5%.
`N114A`: “relative binding score” 8.13%.
For `H34C`, “relative binding score” read 80.9%.

Series 5
Target: FOSB, bZIP domain (human)
Technique: DHFR protein complementation
Matrix: yeast
Setting: single substitutions, most at no-binding floor
Baseline: wild-type JUN-FOS pair
Reading: higher = stronger binding
Parent: JUN, bZIP domain (human); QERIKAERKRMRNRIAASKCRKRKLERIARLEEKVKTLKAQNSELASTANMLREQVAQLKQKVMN; partner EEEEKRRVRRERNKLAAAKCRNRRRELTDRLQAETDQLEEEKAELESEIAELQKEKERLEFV
With `A40F` the binding fitness was -0.0822 natural log.
For `I28S`, the binding fitness was -0.304 natural log.
For `E54I`, the binding fitness was -0.198 natural log.
`R53P` has a binding fitness of -1.17 natural log.
`A46D` has a binding fitness of -0.813 natural log.
`E33L` gave a binding fitness of -0.124 natural log.
With `K39F` the binding fitness was -1.03 natural log.
For `S43Q`, the binding fitness was -0.0165 natural log.
`Q41N` has a binding fitness of -0.322 natural log.
`A57H` gave a binding fitness of -0.0818 natural log.
`E44I` gave a binding fitness of -0.116 natural log.
`I28Y` has a binding fitness of -0.222 natural log.
The binding fitness of `Q41E` is reported as -0.1 natural log.
The binding fitness of `I28Q` is reported as -0.0955 natural log.
`E32N` has a binding fitness of -0.369 natural log.
With `T48V` the binding fitness was -0.108 natural log.

Some of these lines once more (series 4):
For `I105N`, “relative binding score” read -1.32%.
For `E14G`, “relative binding score” read 9.56%.
For `F103M`, “relative binding score” read 7.62%.
`C72R` — result for “relative binding score”: 22%.
Under “relative binding score”, `S171A` is recorded as 83.5%.
`I172K` — result for “relative binding score”: 13.8%.
`P146I`: “relative binding score” 6.11%.
Under “relative binding score”, `V43G` is recorded as 4.02%.
`S42W`: “relative binding score” 15.1%.
`S11M` — result for “relative binding score”: 63.8%.
`H122Y` — result for “relative binding score”: 13.5%.
`E152K`: “relative binding score” 48.5%.
`R113V` — result for “relative binding score”: 65.5%.
